Experimental data from different studies.
Protocols differ between the studies behind these lines. Values joined by “and” are separate records of one study, mostly repeats; a detail may differ. ± marks the error that the study gave.

For `Cc1noc(C)c1Cn1cc(N2C(=O)CN(Cc3cccc(O)c3)C2=O)cn1`, “aberrant cells with gaps” read 2% (human blood lymphocytes; 296.6 µg/mL, 3 h).
For `C/C=C/C(=O)Nc1ccc(OS(=O)(=O)C2CC3OC2C(c2ccc(O)cc2)=C3c2ccc(O)cc2)cc1` (centres unmarked), the IC50 was 27.3 ± 2.94 µM (MCF-10A; cell viability; 72 (unit not given)).
The HC50 of `CCCCC[P+](/C=C(/c1ccccc1)c1cc(Cl)ccc1OC)(CCCCC)CCCCC.[I-]` is reported as 25 µM (human red blood cells; PBS; 1 h, 37 °C).
The viability of `C#Cc1cccc(Nc2ncnc3cc(OCCOC)c(OCCOC)cc23)c1` is reported as 49% (HPrEC normal prostate epithelial cells; MTT; 25 µg/mL, 2% serum).
`CC(C)C[C@H](NC(=O)[C@H](Cc1ccccc1)NC(=O)c1cnccn1)B(O)O` gave a viability of 100% and 95.6% (CHP-212 parental; SRB; 0.3704 µM).
For `Cc1cc(C(=O)NC(C)(C)COc2cccc3c2C(N)=NS(=O)(=O)N3)cc(C)n1`, the cytotoxicity was 5% (human peripheral blood lymphocytes; CBPI, preliminary test; 600 µg/mL, 4 h; baseline: vehicle control).
For `C=CC(=O)Nc1ccc(OS(=O)(=O)C2CC3OC2C(c2ccc(O)cc2)=C3c2ccc(O)cc2)cc1` (centres unmarked), the IC50 was 20 ± 3.61 µM (MCF-10A; cell viability; 72 (unit not given)).
The Papp of `O=C(O)c1cccnc1Nc1cccc(C(F)(F)F)c1` is reported as 46 ×10⁻⁶ cm/s (MDCK-LE, low efflux; passive permeability; apical to basolateral).
`CC(C)=CC(=O)Nc1ccc(C2=C(c3ccc(O)cc3)C3OC2CC3S(=O)(=O)N(CC(F)(F)F)c2cccc(O)c2)cc1` (centres unmarked) has an IC50 of 18 ± 1.48 µM (MCF-10A; cell viability; 72 (unit not given)).
The CC50 of `COC1=CC(c2cc3ccccc3[nH]2)=N/C1=C\c1[nH]c(C)cc1C` is reported as 15 µM (pigeon embryo fibroblasts).
For `O=C(C[C@@H](C(F)F)n1ccc(F)n1)N1CCC(O)(Cn2cnc3c(cnn3-c3ccc(F)cc3)c2=O)CC1`, the viability was 44.6% and 50.6% (CHP-212 parental; SRB; 0.08231 µM).
`[N-]=[N+]=N[C@]1(CO)O[C@@H](n2ccc(N)nc2=O)[C@@H](F)[C@@H]1O` has a CC50 of greater than 100 µM (A549-hACE2; cytotoxicity; 24 (unit not given)).
`COc1ncnc(C2CC2)c1-c1ncc2cnn(Cc3ccc(-c4nc(C(F)(F)F)cn4C(C)C)cc3)c2n1` gave a viability of 67% and 70.5% (CHP-212 parental; SRB; 25 µM).
The EC50 of `CC1(C)CCC2=C(O1)c1ccccc1C(=O)C2=O` is reported as 11.9 µM (Toxoplasma gondii; parasite growth; HFF, bradyzoite, alkaline-induced).
For `CCOC(=O)c1c(C)nc2ccc(-c3ccc(F)c(F)c3)cc2c1O`, cytotoxicity read “not toxic” (MCF-10A; MTT; up to 100 µM).
With `CCCCCC[P+](/C=C(/c1ccccc1)c1cc(Cl)ccc1O)(CCCCCC)CCCCCC.[Cl-]` the HC50 was 19 µM (human red blood cells; PBS; 1 h, 37 °C).
For `COC(=O)Nc1nc2cc(C(=O)c3ccc(F)cc3)ccc2[nH]1`, the CC50 was 40 µM (pigeon embryo fibroblasts).
For `C[C@]12CC[C@@H]3c4ccc(O)cc4C[C@@H](CCCCCCCCC[S+]([O-])CCCC(F)(F)C(F)(F)F)[C@H]3[C@@H]1CC[C@@H]2O` (some centres unmarked), the viability was 72.6% and 70.3% and 63.3% (MCF7; CCK-8; 10 nM; baseline: untreated).
`CO[C@@H]1[C@H](OC(=O)/C=C/C=C/C=C/C=C/C(=O)O)CC[C@]2(CO2)[C@H]1[C@@]1(C)O[C@@H]1CC=C(C)C` has a CC50 of roughly 200 µM (pigeon embryo fibroblasts).
For `CC/C(=C(/c1ccc(OCCNC)cc1)c1ccc(B2OC(C)(C)C(C)(C)O2)cc1)c1ccccc1`, “conversion to endoxifen” read 60% (MCF7; 1 µM, 4 h).
`CCCCCCN(Cc1ccccc1)Cc1ccc(CNC(=O)c2csc3nc[nH]c(=O)c23)cc1` has a hemolysis of roughly 7% (human red blood cells; 100 µM, 1 h).
For `Cc1nn(-c2nc3c(F)cc(F)cc3s2)c(O)c1C(c1ccc(C(F)(F)F)cc1)c1c(C)nn(-c2nc3c(F)cc(F)cc3s2)c1O`, the CC50 was 56.8 µM (RAW-ISG (mouse); cell viability, CCK-8; 24 h).
`Cc1ncc([N+](=O)[O-])n1CCO` gave a CC50 of roughly 200 µM (pigeon embryo fibroblasts).
`C#CC(=O)Nc1ccc(OS(=O)(=O)C2CC3OC2C(c2ccc(O)cc2)=C3c2ccc(O)cc2)cc1` (centres unmarked) gave an IC50 of 39.2 ± 2.67 µM (MCF-10A; cell viability; 72 (unit not given)).
`CCOC(=O)c1c(C)nc2ccc(-c3ccc(F)cc3)cc2c1O` — result for cytotoxicity: “not toxic” (MCF-10A; MTT; up to 100 µM).
`COC[C@@H](CC(C)C)NC(=O)c1ccc(C)c(C)c1`: “cells with structural aberrations” 0.5% (primary human lymphocytes; 322 µg/mL, 4 (unit not given), with S9).
`Oc1c(I)cc(I)c2cccnc12` has a CC50 of 40 µM (pigeon embryo fibroblasts).
`O=C(CBr)Nc1ccc(C2=C(c3ccc(O)cc3)C3OC2CC3S(=O)(=O)Oc2ccccc2)cc1` (centres unmarked) gave an IC50 of 8.08 ± 0.22 µM (MCF-10A; cell viability; 72 (unit not given)).
`COc1cccc2c1C(=O)c1c(O)c3c(c(O)c1C2=O)C[C@@](O)(C(=O)CO)C[C@@H]3O[C@H]1C[C@H](N)[C@H](O)[C@H](C)O1` gave a viability of 14% and 17.7% (CHP-212 parental; SRB; 0.3704 µM).
`Cc1ccc(CNC(=O)Cn2cc(CSc3nc4ccccc4[nH]3)nn2)cc1` gave a viability of 28.4% (HEK293; MTT; 15.6 ppm).
The IC50 of `CC(C)=CC(=O)Nc1ccc(OS(=O)(=O)C2CC3OC2C(c2ccc(O)cc2)=C3c2ccc(O)cc2)cc1` (centres unmarked) is reported as 43.8 ± 2.85 µM (MCF-10A; cell viability; 72 (unit not given)).
For `CC(=O)[C@]1(O)Cc2c(O)c3c(c(O)c2[C@@H](O[C@H]2C[C@H](N)[C@H](O)[C@H](C)O2)C1)C(=O)c1ccccc1C3=O`, the EC50 was 0.82 µM (Toxoplasma gondii; bradyzoite growth; glutamine-induced bradyzoites, glucose-free medium).
`Cc1cccc(C)c1OCC(=O)NC(CCC(Cc1ccccc1)NC(=O)C(C(C)C)N1CCCNC1=O)Cc1ccccc1` (centres unmarked) gave an EC50 of 40.7 µM (HEK293T ΔE; cytotoxicity, refers to: cell count; baseline: vehicle).
The CC50 of `CC(C)C[C@@H](C=O)NC(=O)[C@H](CC(C)C)NC(=O)[C@H](CC(C)C)NC(=O)OCc1ccccc1` is reported as 35 µM (pigeon embryo fibroblasts).
Under “micronuclei per binucleated cell”, `COc1cccc(-c2n[nH]c(SCc3ccccn3)n2)c1OC` is recorded as 0.014 (CHO-WBL; 31 µg/mL, 19 h, without S9).
The percent transported of `CN1C[C@@H]2C[C@H]1CN2c1cc2c(cc1F)c(=O)c(C(=O)O)cn2C1CC1` is reported as 18.3 ± 4.03% (MDCK-II parental; apical-to-basolateral transport, transepithelial transport; HBSS with HEPES; 10 µM, 4 h).
For `CCCC[P+](/C=C(/c1ccccc1)c1cc(Cl)ccc1O)(CCCC)CCCC.[Cl-]`, the HC50 was 110 µM (human red blood cells; PBS; 1 h, 37 °C).
The IC50 of `CCN(c1ccc(O)cc1)S(=O)(=O)C1CC2OC1C(c1ccc(O)cc1)=C2c1ccc(NC(=O)C=C(C)C)cc1` (centres unmarked) is reported as 8.72 ± 0.45 µM (MCF-10A; cell viability; 72 (unit not given)).
The EC50 of `CC(C)(C)NC(=O)[C@@H]1C[C@@H]2CCCC[C@@H]2CN1C[C@@H](O)[C@H](Cc1ccccc1)NC(=O)[C@H](CC(N)=O)NC(=O)c1ccc2ccccc2n1` is reported as 206 µM (HEK293T tetracycline-induced EGFP-ΔE; cytotoxicity; baseline: vehicle).
`CC(=O)O[C@H]1C(=O)[C@@]2(C)[C@H]([C@H](OC(=O)c3ccccc3)[C@]3(O)C[C@H](OC(=O)[C@H](O)[C@@H](NC(=O)c4ccccc4)c4ccccc4)C(C)=C1C3(C)C)[C@]1(OC(C)=O)CO[C@@H]1C[C@@H]2O` gave a viability of 16.7% and 19.2% (CHP-212 parental; SRB; 0.1235 µM).
With `CC/C(=C(\c1ccc(O)cc1)c1ccc(OCCN(C)C)cc1)c1ccccc1` the IC50 was 21.5 ± 2.74 µM (MCF-10A; cell viability; 72 (unit not given)).
For `CCCCCC[P+](/C=C(/c1ccccc1)c1cc(Cl)ccc1OC)(CCCCCC)CCCCCC.[I-]`, the HC50 was 8 µM (human red blood cells; PBS; 1 h, 37 °C).
Under cytotoxicity, `COc1cc2ncnc(Nc3ccc(F)c(Cl)c3)c2cc1NC(=O)/C=C/CN1CCCCC1` is recorded as “toxic” (U87; concentration not given).
`C[C@](C#N)(COc1cc(C#N)ccc1C(F)(F)F)NC(=O)c1ccc(SC(F)(F)F)cc1` has a cytotoxicity of 18.2 ± 2.93% (MCF-10A; 50 µM, 48 (unit not given); baseline: negative control).
`COC(=O)N[C@H](C(=O)N[C@@H](Cc1ccccc1)[C@@H](O)CN(Cc1ccc(-c2ccccn2)cc1)NC(=O)[C@@H](NC(=O)OC)C(C)(C)C)C(C)(C)C` gave an EC50 of 53.3 µM (HEK293T tetracycline-induced EGFP-ΔE; cytotoxicity; baseline: vehicle).
For `Cc1nc(C)c(Cl)c(O)c1Cl`, the CC50 was 50 µM (pigeon embryo fibroblasts).
For `CC(=NNC(=O)COc1ccc2c(C)c(Cc3ccccc3)c(=O)oc2c1C)c1ccc(Br)cc1`, the viability was 44.7% (HPrEC normal prostate epithelial cells; MTT; 100 µg/mL, 2% serum).

For quick reference, copied from above:
`CC(C)C[C@H](NC(=O)[C@H](Cc1ccccc1)NC(=O)c1cnccn1)B(O)O` gave a viability of 100% and 95.6% (CHP-212 parental; SRB; 0.3704 µM).
For `CC(=O)[C@]1(O)Cc2c(O)c3c(c(O)c2[C@@H](O[C@H]2C[C@H](N)[C@H](O)[C@H](C)O2)C1)C(=O)c1ccccc1C3=O`, the EC50 was 0.82 µM (Toxoplasma gondii; bradyzoite growth; glutamine-induced bradyzoites, glucose-free medium).
For `CCOC(=O)c1c(C)nc2ccc(-c3ccc(F)c(F)c3)cc2c1O`, cytotoxicity read “not toxic” (MCF-10A; MTT; up to 100 µM).
